Measurements gathered from unrelated publications.
Parts stem from different laboratories: compare values within a part only. Positions count from the first letter of the parent shown.

Study 1 — technique: RNA Bind-n-Seq; form: RNA; sample: in vitro; concentration: 365 nM; baseline: no-protein control; reading: higher = stronger binding; endpoint: RBNS enrichment (R)
Target: RNA binding protein fox-1 homolog 2, RRM domain, GST-SBP tag (RBFOX2, Homo sapiens, UniProt O43251-10, residues 100-194)
Setting: natural RNA segment, single round, ends assumed
All sequences stand within: GGGAGUUCUACAGUCCGACGAUC … UGGAAUUCUCGGGUGCCAA
Target sequence (chain): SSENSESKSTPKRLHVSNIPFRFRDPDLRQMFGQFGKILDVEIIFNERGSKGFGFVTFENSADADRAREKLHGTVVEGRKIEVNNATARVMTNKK
Sequence = UGAGAACCGCGCCGGUGUCCCCAGAGACCAGGCUGUGUCCCUCUUCUCUUCCCUGCGCCUGUGAUGCUGGGCACUUCAUCUGAUCGGGGGCGUAGCAUCAUAGUAGUUUU; result = 0.419
Sequence = GGAUAGACUUUUAGUUGAUAGAGAGCCAGUUGAAAUAUCAUCAAUAGAAUUUUAGUUUAGGGAAAACUGGUUUGAUUUCUAGCUUUAUUACUAUUAGGUAUGUAAGCUUG; result = 0.733
Sequence = GCAGGGGUCUUUGCUCUUGAAGCCCAGGAUUGGGCAUGACCUGGUAGGAGCCUCUGUUCUUACCUAUUUCCAUAUACAGCUGCCUGGAGGAUGCUUUUUUUCCAGGACAG; result = 0.387
Sequence = UGGGAGCUGUUCUAAGAAAGGGACCUCCCUCUCCUUUUUAAAUUGGUGAGCCACAAAUUACAUUGAUUAUGUUGAACUUAUUAUUCUUCAAAGAAAAUAUUUUAAACCUG; result = 0.392
Sequence = ACCCUUGCUGGGUCACUAUAAUUCUUUAGAAUUACUGAGUGAACUUUAAAAAAAUUUUCUGCAUAGGUUAUAUCCCAGACCACUUAAAUCAGAAUAUCUUGGAUGGAACC; result = 0.541
Sequence = AGCACAGACAGUGUUUUUGACCCUGACAGCCCUGGCUUAGCUUUUGGCUUCCAUGAAUCAGUACUGUUGUUAAAAGCAGAGCUCUGCUGUUAAGAGGUUCUGUUUCUAAG; result = 0.257
Sequence = CACUUGAGGGGUCUGGGCAGUCCCUCCUCUCCCCAGUGUCCACAGUCACUGAGCCAGACGGUCGGUUGGAACAUGAGACUCGAGGCUGAGCGUGGAUCUGAACACCACAG; result = 0.717
Sequence = UGCAUGGGGUGCUAGGGUUUAAACCAAGUGGUCACGAAGGAUUCUUAUCUCAGGGCUCUGCCUGGCCCACCUUCUCUUGGGCCUGGACUCUCCUUAUCCACAUCCCUGCA; result = 6.15
Sequence = AUCCUGCGCCUGCACCUGUCUCAACUCCCACCCUACAGGGAGUGGGCCAUUCCCUGGGACUCUCGCUCCUGCACUGCCAGCCCCUUCUCCUCUCCCCAGGGCCUGGCCCU; result = 0.808
Sequence = CAGGGAGGCUUGCCCUGUGCCAGAAAACAAGAGGCCACCAUAUGCUUCCAAGUUGACAGGCAAUUCCCACACUUCCUUCCUGUCCUGAGUGCCCCAGACUUUAACUGUGU; result = 0.47
Sequence = CCGGAAGUUCAGGCCACCAGACGUAGUGAUUUGUAAGAAAUUACUGUCUCCUCAGUGAACCUCCUAGUUUCUUUAUAGACUUAACCUUCCCUUCAGUUAAAGGGUUUCUU; result = 0.227
Sequence = ACCCAAUUAUAUUCUAAUGUGAAAAUAUUAGCAUAAAUAGGUGAAAUUGCUCUUCUGAAAAUUGUGUCCUGUGCUUUUAGACUUUGGAGUUCCACAGAUAGUAAAAAUAU; result = 0.36

Study 2 — target: CCND2, cyclin fold, Cln2 fusion (human); technique: yeast growth competition, sequencing; sample: yeast; setting: weak parent motif; baseline: not given; reading: higher = stronger binding; endpoint: normalised enrichment score
Starting sequence: BRCA2 docking peptide (human); PSIKRNLLNEFDR
Variant = PSIKRNLLNIFDR [E10I]; result = -0.104
Variant = PQIKRNLLNEFDR [S2Q]; result = 0.283
Variant = ESIKRNLLNEFDR [P1E]; result = 0.398
Variant = PSKKRNLLNEFDR [I3K]; result = 0.67
Variant = PSIKRALLNEFDR [N6A]; result = 0.205
Variant = PSIKRNLLNEKDR [F11K]; result = -0.24
Variant = ISIKRNLLNEFDR [P1I]; result = 0.256
Variant = PSIKRNLLNSFDR [E10S]; result = 0.288
Variant = TSIKRNLLNEFDR [P1T]; result = 0.14
Variant = PGIKRNLLNEFDR [S2G]; result = 0.0997
Variant = PSIKRNLLNVFDR [E10V]; result = 0.0306
Variant = PSIKRNLLFEFDR [N9F]; result = -0.0513
Variant = FSIKRNLLNEFDR [P1F]; result = -0.0109
Variant = PSHKRNLLNEFDR [I3H]; result = 0.287
Variant = PSIKKNLLNEFDR [R5K]; result = 0.125
Variant = DSIKRNLLNEFDR [P1D]; result = 0.221
Variant = PSIKRNCLNEFDR [L7C]; result = 0.649
Variant = PSIKRELLNEFDR [N6E]; result = 0.39

Study 3 — technique: DHFR PCA, dose-response; sample: yeast; setting: Hill fit, mean, not affinity; with: (+)-ABA, dose series; reading: lower = more sensitive; endpoint: ABA EC50
Target: ABI1, truncated, D143A, DHFR fusion (Arabidopsis thaliana, UniProt P49597)
Starting sequence: PYL1, truncated, DHFR fusion (Arabidopsis thaliana, UniProt Q8VZS8); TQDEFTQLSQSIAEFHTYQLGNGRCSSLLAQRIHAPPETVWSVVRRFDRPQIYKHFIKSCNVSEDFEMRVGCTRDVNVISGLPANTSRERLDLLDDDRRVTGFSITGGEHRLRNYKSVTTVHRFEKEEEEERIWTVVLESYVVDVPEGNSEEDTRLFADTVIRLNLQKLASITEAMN
Variant = I162C; result = 27.6 µM
Variant = H55A; result = 0.234 µM
Variant = P36T; result = 2.49 µM
Variant = F157Y; result = 63.5 µM
Variant = G23H; result = 4.32 µM
Variant = L29G; result = 622 µM
Variant = E151I; result = 3.27 µM
Variant = G107E; result = 37.9 µM
Variant = D159C; result = 66.7 µM
Variant = L93K; result = 6.99 µM
Variant = S63R; result = 2.43 µM
Variant = P36N; result = 3.59 µM
Variant = Q51N; result = 12.4 µM
Variant = F157V; result = 35.2 µM
Variant = E147I; result = 4.29 µM
Variant = R90G; result = 486 µM
Variant = I12W; result = 122 µM
Variant = Q31C; result = 67.3 µM
Variant = D96R; result = 832 µM
Variant = R49K; result = 2.15 µM
Variant = A13L; result = 3.82 µM
Variant = R24S; result = 4.66 µM
Variant = E67C; result = 2.86 µM
Variant = G21D; result = 1.98 µM
Variant = N85R; result = 0.683 µM

Study 4 — technique: competition protein-binding microarray; form: double-stranded DNA, one strand shown; sample: in vitro; concentration: 2 µM; with: Pho4 competitor, 0.05 µM; reading: higher = stronger binding; endpoint: fluorescence intensity; all sequences stand within: … GTCTTGATTCGCTTGACGCTGCTG
Target: Centromere-binding protein 1, full length, His-tagged (CBF1, Saccharomyces cerevisiae, UniProt P17106, residues 1-351)
Chain of UniProt P17106 (whole entry, looked up): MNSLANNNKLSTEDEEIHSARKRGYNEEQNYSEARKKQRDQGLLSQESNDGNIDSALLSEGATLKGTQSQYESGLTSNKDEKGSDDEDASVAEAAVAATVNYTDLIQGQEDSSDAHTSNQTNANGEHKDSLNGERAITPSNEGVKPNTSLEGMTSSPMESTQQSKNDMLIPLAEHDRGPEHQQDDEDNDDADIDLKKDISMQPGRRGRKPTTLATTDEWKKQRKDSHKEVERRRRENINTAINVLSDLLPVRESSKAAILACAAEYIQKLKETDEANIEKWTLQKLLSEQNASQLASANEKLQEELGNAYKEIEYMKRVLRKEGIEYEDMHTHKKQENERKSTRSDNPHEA
Setting: whole 60-bp probe, lowest competitor level
Sequence = CTTTCCCGATCTTGCAGGGTGGGTGTAGCACATTTG; result = 75.3 a.u.
Sequence = CGGGGTTAAGTTTGTCCTGTGGGTGGCTTGCAGCAG; result = 66.6 a.u.
Sequence = TGCGCAACAACTTGGCACGTGGGTGTATGTCTAGAA; result = 1210 a.u.
Sequence = CGTCCTAGTGATTTTCACGTGGGGTCCATGAGGAAG; result = 686 a.u.
Sequence = CTAACGAAGGTTTGTCACGAGACTTACAAGCCAAGT; result = 852 a.u.
Sequence = CATACCCAACCTTGTAACGTGGGTGAAGATATTTGT; result = 92.4 a.u.
Sequence = CTTCTGTAAATTTTTCACGTGTCATGACGCGCCCCG; result = 995 a.u.
Sequence = TGAAAATACCATTTGGGAAGGTAACAAAATCATACA; result = 68.6 a.u.
Sequence = CGGGGTTAAGTTTTTCACGTGCATTGCTTGCAGCAG; result = 843 a.u.
Sequence = TGTACTCGGTCAACACACGTGCACAGAGCACCTACT; result = 933 a.u.
Sequence = TTGGTGCTTTCTTTGCACGTTCTGCCAAAGTGTTTC; result = 124 a.u.
Sequence = CTTTCCCGATCTTGCCGCGTGGGTGTAGCACATTTG; result = 84.1 a.u.
Sequence = CTAACGAAGGTTTGTCACTTGACTTACAAGCCAAGT; result = 129 a.u.
Sequence = AGTTGGCGATCAAAGCACGTGATGGGTTTTCCAAAT; result = 6860 a.u.
Sequence = ACAAAATCGGCTTTTTACGTGACGGAAGAAGGTTAA; result = 79.4 a.u.
Sequence = CGTCCTAGTGATTGTCGCGTGGGTGCCATGAGGAAG; result = 109 a.u.

Study 5 — technique: protein-binding microarray; form: double-stranded DNA, one strand shown; sample: in vitro; concentration: 2540 nM top; setting: 60-bp whole probe; with: salmon DNA 0.4 mg/ml; baseline: random background probes; reading: higher = stronger binding; endpoint: fitted relative affinity; all sequences stand within: GCCTAGCAC … GTCTTGATTCGCTTGACGCTGCTG
Target: Interferon regulatory factor 3, full length, phosphomimetic (IRF3, Homo sapiens, UniProt Q14653, residues 1-427, S386D/S396D/S398D/S402D/T404D/S405D)
Target sequence (chain): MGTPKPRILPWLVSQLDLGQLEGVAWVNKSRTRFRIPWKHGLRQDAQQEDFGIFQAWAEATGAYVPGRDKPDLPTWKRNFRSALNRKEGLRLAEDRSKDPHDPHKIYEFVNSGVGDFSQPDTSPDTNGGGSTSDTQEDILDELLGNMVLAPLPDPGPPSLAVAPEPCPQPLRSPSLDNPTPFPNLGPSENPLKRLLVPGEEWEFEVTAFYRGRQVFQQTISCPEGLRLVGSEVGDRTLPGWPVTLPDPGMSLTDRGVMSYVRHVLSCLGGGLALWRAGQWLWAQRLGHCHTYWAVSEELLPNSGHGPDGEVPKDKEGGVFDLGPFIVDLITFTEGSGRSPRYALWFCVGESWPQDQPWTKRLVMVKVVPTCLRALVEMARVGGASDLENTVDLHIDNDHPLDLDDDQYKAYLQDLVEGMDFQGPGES
Sequence = GACTGTTTCCTTTTCCTGACGTGCTAG; result = 10.3 z-score
Sequence = TTGCAGATGACGAAACTGAAGTGCTAG; result = 0.245 z-score
Sequence = GACGGTCTCGGGTATCGGGACGTGCTA; result = 0.311 z-score
Sequence = TCATTATTAAAACTTCATACTGTGCTA; result = 0.726 z-score
Sequence = TACGAACTGAGTCTCGAGACGTGCTAG; result = -0.196 z-score
Sequence = TCAATTATTGTTTCCTCACTGTGCTAG; result = 2.28 z-score
Sequence = TTAGGTTTCGATACTGGGTTAGTGCTA; result = 6.37 z-score
Sequence = GATATTATATCTGTGTTATTGTGCTAG; result = 0.471 z-score
Sequence = TCAAGGTTGTTTCTAATACTGTGCTAG; result = 0.591 z-score
Sequence = TCAGTTTTCAATTTTTGACTGTGCTAG; result = 2.87 z-score
Sequence = ATAGATATCGGGTATCGATTAGTGCTA; result = 0.575 z-score
Sequence = GACGGTCTCCCTATCCTGACGTGCTAG; result = 1.98 z-score
Sequence = GACGATTTCAGTTCGGAGACGTGCTAG; result = 1.73 z-score
Sequence = GACGGTCTCCTGATCCTGACGTGCTAG; result = 0.814 z-score
Sequence = TTAGGTTCCGGTTTCGCTTAGTGCTAG; result = 6.31 z-score
Sequence = GACGGTTTAGGGTATCGGGACGTGCTA; result = 0.642 z-score
Sequence = GACGGTATCGGTTTTGGGACGTGCTAG; result = 5.65 z-score

Excerpt of the above (study 3):
Variant = I162C; result = 27.6 µM
Variant = H55A; result = 0.234 µM
Variant = P36T; result = 2.49 µM
Variant = F157Y; result = 63.5 µM
Variant = G23H; result = 4.32 µM
Variant = L29G; result = 622 µM
Variant = E151I; result = 3.27 µM
Variant = G107E; result = 37.9 µM
Variant = D159C; result = 66.7 µM
Variant = L93K; result = 6.99 µM
Variant = S63R; result = 2.43 µM
Variant = P36N; result = 3.59 µM
